Measured values from different studies.
Lines come from different studies, so protocols differ. ± gives the spread as reported.

For `CCS(=O)(=O)c1ccccc1CN1CCN(c2nc3ccc(F)cc3s2)CC1`, the IC50 was 1.82 ± 0.32 µM (N-acylethanolamine-hydrolyzing acid amidase (NAAA, Homo sapiens, UniProt Q02083); enzyme activity, inhibitor; HEK293 cells expressing NAAA).
With `N[C@@H](Cc1c[nH]c2ccc(OCc3ccccc3I)cc12)C(=O)O` the IC50 was 17 µM (Large neutral amino acids transporter small subunit 1 (SLC7A5, Homo sapiens, UniProt Q01650); transporter uptake, inhibitor, radiometric).
The IC50 of `N=C(NCCCSCC1OC(n2cnc3c(N)ncnc32)C(O)C1O)NCCCC(N)C(N)=O` (stereo not drawn) is reported as 6.5 µM (Protein arginine N-methyltransferase 1 (PRMT1, Homo sapiens, UniProt Q99873); enzyme activity, inhibitor, fluorescence).
The IC50 of `CC(=O)C12NC(C)(C)CC1(C)C(=O)C1=C2c2c(c3c4n2C(C)(C)CC2=C4C4(CC(C)(C)NC(C)(C4)C2=O)CC3(C)C)C(=O)C(C)(C)N1` (single isomer, unassigned; (-)) is reported as 0.91 µM (Potassium voltage-gated channel subfamily A member 2 (KCNA2, Homo sapiens, UniProt P16389); ion current, inhibitor, patch clamp).
The IC50 of `CCCCCCCCCCCCCC(=S)NCCCC[C@H](NS(C)(=O)=O)C(=O)N[C@@H](C)C(=O)N[C@@H](CCCNC(=N)N)C(N)=O` is reported as < 0.1 µM (NAD-dependent protein deacetylase sirtuin-2 (SIRT2, Homo sapiens, UniProt Q8IXJ6); enzyme activity, inhibitor).
With `O=C(CCc1cccc2c1B(O)OC2)Nc1ccccc1N1CCOCC1` the IC50 was ~6 µM (Cleavage and polyadenylation specificity factor subunit 3 (CPSF3, Homo sapiens, UniProt Q9UKF6); ligand displacement, FP).
For `O=C(O[C@@H]1Cc2c(O)cc(O)cc2O[C@@H]1c1ccc(O)cc1)c1cc(O)c(O)c(O)c1`, the IC50 was 63.1 µM (maltase, rat; enzyme activity, inhibitor; rat intestinal brush border vesicles).
The IC50 of `OC[C@@H]1NC[C@H](O)[C@@H]1O` is reported as 270 µM (Golgi alpha-mannosidase IIb (Drosophila melanogaster, UniProt Q9VF33); inhibitor; added: p-nitrophenyl mannoside).
`COc1ncnc(C2CC2)c1-c1ncc2c(n1)n(Cc1ccc(-c3nc(C(F)(F)F)cn3C)cc1)c(=N)n2CC(F)(F)F` has an IC50 of 1.8 µM (5-hydroxytryptamine receptor 2B (HTR2B, Homo sapiens, UniProt P41595); cell-based).
The IC50 of `CCOc1c(C(C)(C)O)sc2cnc(Nc3ccc(N4CCC(N5CC6(COC6)C5)CC4)cc3OC)nc12` is reported as 0.022 µM (Calcium/calmodulin-dependent protein kinase type II subunit delta (CAMK2D, Homo sapiens, UniProt Q13557); enzyme activity, inhibitor, mobility shift).
For `O=C(N[C@@H](Cc1coc2ccccc12)B(O)O)[C@@H]1C[C@H]2CC[C@@H]1O2`, the IC50 was > 30 µM (Proteasome subunit beta type-3/PSMB7 (Homo sapiens, UniProt P49720+Q99436); β2 enzyme activity, inhibitor; human constitutive proteasome; 2 h preincubation, added: Ac-RLR-AMC).
`NS(=O)(=O)c1ccc(/N=N/c2c(O)ccc3ccccc23)cc1` has an IC50 of 5.3 µM (Lactoylglutathione lyase (GLO1, Homo sapiens, UniProt Q04760); enzyme activity, inhibitor).
For `COc1c(/C=C/C(=O)c2ccc(O)cc2)ccc(O)c1CC=C(C)C`, the IC50 was 26.6 µM (Prothrombin (F2, Homo sapiens, UniProt P00734); enzyme activity, inhibitor, fluorescence; with preincubation).
With `C=C(NC(=O)C(=C)NC(=O)c1csc(C2=NC3c4csc(n4)C4NC(=O)c5csc(n5)C(C(C)(O)C(C)O)NC(=O)C5CSC(=N5)C(=CC)NC(=O)C(C(C)C)NC(=O)c5csc(n5)C3(CC2)NC(=O)C(C)NC(=O)C(=C)NC(=O)C(C)NC(=O)C(C(C)CC)NC2C=Cc3c(C(C)O)cc(nc3C2O)C(=O)OC4C)n1)C(N)=O` (stereo not drawn) the IC50 was 5.38 ± 0.97 µM (Proteasome Macropain subunit MB1 (PSMB5, Homo sapiens, UniProt P28074); chymotrypsin-like activity, inhibitor; purified 20S proteasome; 15 min preincubation, 37 °C, added: Suc-Leu-Leu-Val-Tyr-AMC substrate).
The IC50 of `CC[C@H](C)[C@H](NC(=O)[C@@H](NC(=O)[C@H](CSC(C(=O)O)c1ccccc1[N+](=O)[O-])NC(=O)[C@H](CCCCN)NC(=O)[C@@H](NC(=O)[C@H](CCCCN)NC(=O)[C@H](CO)NC(=O)[C@H](CCCCN)NC(=O)[C@H](CCCCN)NC(=O)[C@@H](N)CCCCN)[C@@H](C)O)C(C)C)C(=O)N[C@@H](CCSC)C(=O)O` (stereo partly drawn) is reported as 4.7 ± 1.8 µM (Protein farnesyltransferase (Rattus norvegicus, UniProt Q02293+Q04631); inhibitor; pH 7.5).

Repeated from above:
With `O=C(CCc1cccc2c1B(O)OC2)Nc1ccccc1N1CCOCC1` the IC50 was ~6 µM (Cleavage and polyadenylation specificity factor subunit 3 (CPSF3, Homo sapiens, UniProt Q9UKF6); ligand displacement, FP).
The IC50 of `OC[C@@H]1NC[C@H](O)[C@@H]1O` is reported as 270 µM (Golgi alpha-mannosidase IIb (Drosophila melanogaster, UniProt Q9VF33); inhibitor; added: p-nitrophenyl mannoside).
